Assay results pooled from the literature.
Each numbered part is a random draw from the data of one study; scales do not carry over between parts. Substitutions count along the parent as printed.

Study 1 — method: RNA Bind-n-Seq; form: RNA; medium: in vitro; concentration: 20 nM; setting: 6-mer, flanks averaged, single round; together with: 150 mM KCl; baseline: input library; direction: higher = stronger binding
Target: TAR DNA-binding protein 43, full length, His tag (TARDBP, Homo sapiens, UniProt Q13148, residues 1-414)
| Strand | 6-mer enrichment (R) |
| --- | --- |
| GCUGUC | 0.79 |
| AGUGAG | 1.69 |
| UGGUCA | 0.772 |
| UAUAAA | 0.687 |
| CGGCCC | 0.811 |
| AGUGCA | 0.897 |
| CCGGCC | 0.83 |
| CAUGGG | 2.12 |

Study 2 — observed: binding; method: phage display NGS; form: peptide; concentration: concentration not given; setting: normalized abundance; baseline: input library
Target: UDP-N-acetylglucosamine--peptide N-acetylglucosaminyltransferase 110 kDa subunit (OGT, Homo sapiens, UniProt O15294)
Chain of UniProt O15294 (whole entry, looked up): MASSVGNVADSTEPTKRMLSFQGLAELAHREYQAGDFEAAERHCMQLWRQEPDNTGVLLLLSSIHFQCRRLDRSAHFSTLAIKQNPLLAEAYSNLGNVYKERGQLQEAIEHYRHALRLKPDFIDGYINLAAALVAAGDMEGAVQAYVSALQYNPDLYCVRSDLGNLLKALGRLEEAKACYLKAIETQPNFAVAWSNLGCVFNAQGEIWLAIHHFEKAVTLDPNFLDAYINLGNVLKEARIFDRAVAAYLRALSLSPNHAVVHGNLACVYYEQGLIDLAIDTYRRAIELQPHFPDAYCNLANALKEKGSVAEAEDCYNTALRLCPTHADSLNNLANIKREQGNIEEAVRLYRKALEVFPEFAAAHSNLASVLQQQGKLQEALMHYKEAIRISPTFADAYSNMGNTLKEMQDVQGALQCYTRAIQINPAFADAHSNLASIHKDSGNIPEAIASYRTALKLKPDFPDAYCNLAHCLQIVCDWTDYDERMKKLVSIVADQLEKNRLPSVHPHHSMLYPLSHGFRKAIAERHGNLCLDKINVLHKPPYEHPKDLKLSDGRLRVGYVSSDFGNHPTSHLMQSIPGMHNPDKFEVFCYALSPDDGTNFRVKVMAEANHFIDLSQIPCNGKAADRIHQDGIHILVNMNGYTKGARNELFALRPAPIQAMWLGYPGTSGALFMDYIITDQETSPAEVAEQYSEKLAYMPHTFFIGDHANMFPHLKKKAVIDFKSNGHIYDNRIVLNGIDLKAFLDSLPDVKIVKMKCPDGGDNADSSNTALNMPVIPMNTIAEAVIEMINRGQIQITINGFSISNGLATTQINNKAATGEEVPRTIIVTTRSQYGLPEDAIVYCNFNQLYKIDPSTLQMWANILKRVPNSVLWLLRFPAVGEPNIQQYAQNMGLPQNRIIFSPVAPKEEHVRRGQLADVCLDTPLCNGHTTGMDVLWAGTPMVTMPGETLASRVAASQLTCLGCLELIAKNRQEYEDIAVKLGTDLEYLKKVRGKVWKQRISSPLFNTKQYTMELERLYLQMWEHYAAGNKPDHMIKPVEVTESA
| Sequence | enrichment fold change |
| --- | --- |
| GPNHIHHGHSEPHHI | 12.2 |
| YPPVYVIQIPMAQQH | 5.97 |
| VANMHHHVDHTAHGS | 10.4 |
| TMRHTHDWIWQHGVQ | 10.8 |
| HGTHTAGAAPHILHH | 8.26 |
| WPHTMHAAKHDFHF | 6.24 |

Study 3 — target: CCND1, cyclin fold, Cln2 fusion (human); method: yeast growth competition, sequencing; medium: yeast; setting: strong parent motif; baseline: not given; direction: higher = stronger binding; parent: viral docking peptide; YKVKRRLVFGADD
| Variant | normalised enrichment score |
| --- | --- |
| YGVKRRLVFGADD [K2G] | 1.87 |
| YKVGRRLVFGADD [K4G] | 1.35 |
| YKVTRRLVFGADD [K4T] | 0.591 |
| YKVKRRLVIGADD [F9I] | 0.156 |
| YKVKRRTVFGADD [L7T] | -0.0455 |
| YVVKRRLVFGADD [K2V] | 1.28 |
| YKVKRRLVFEADD [G10E] | 3.29 |
| YKVKRRLVFGCDD [A11C] | 2.04 |
| YKVVRRLVFGADD [K4V] | 0.275 |
| YPVKRRLVFGADD [K2P] | 2.85 |
| YKVKRRLVFLADD [G10L] | 0.937 |
| YKVKRELVFGADD [R6E] | 1.11 |
| YKVKRRLCFGADD [V8C] | 1.64 |
| YTVKRRLVFGADD [K2T] | 2.87 |
| YKIKRRLVFGADD [V3I] | 1.77 |

Study 4 — method: aptamer microarray, sandwich; form: DNA with 2'F-ANA; medium: in vitro; concentration: 200 nM; together with: Cy3 exosite-II aptamer, 400 nM; direction: higher = stronger binding; strand: GGTTGGTGTGGTTGG
Target: Prothrombin, mature alpha-thrombin (F2, Homo sapiens, UniProt P00734)
Setting: whole 15-mer aptamer, many near background
| Modification | mean fluorescence intensity [a.u.] |
| --- | --- |
| 2'F-ANA at 4 5 12 13 15 | 87.7 |
| 2'F-ANA at 3 4 8 10 11 12 14 | 209 |
| 2'F-ANA at 4 5 6 7 9 14 | 43.1 |
| 2'F-ANA at 2 5 7 10 11 | 44.9 |
| 2'F-ANA at 1 2 3 5 8 9 10 11 | 44.9 |
| 2'F-ANA at 3 4 7 11 12 13 14 | 379 |
| 2'F-ANA at 9 10 11 | 154 |
| 2'F-ANA at 3 6 7 8 10 11 | 548 |
